Published values of several laboratories.
Protocols differ between the studies behind these lines. “And” joins repeats or separate records; there may be more than shown. ± gives the spread as reported.
HRH1: Histamine H1 receptor (HRH1, Homo sapiens, UniProt P35367)
Chain of UniProt P35367 (whole entry, looked up): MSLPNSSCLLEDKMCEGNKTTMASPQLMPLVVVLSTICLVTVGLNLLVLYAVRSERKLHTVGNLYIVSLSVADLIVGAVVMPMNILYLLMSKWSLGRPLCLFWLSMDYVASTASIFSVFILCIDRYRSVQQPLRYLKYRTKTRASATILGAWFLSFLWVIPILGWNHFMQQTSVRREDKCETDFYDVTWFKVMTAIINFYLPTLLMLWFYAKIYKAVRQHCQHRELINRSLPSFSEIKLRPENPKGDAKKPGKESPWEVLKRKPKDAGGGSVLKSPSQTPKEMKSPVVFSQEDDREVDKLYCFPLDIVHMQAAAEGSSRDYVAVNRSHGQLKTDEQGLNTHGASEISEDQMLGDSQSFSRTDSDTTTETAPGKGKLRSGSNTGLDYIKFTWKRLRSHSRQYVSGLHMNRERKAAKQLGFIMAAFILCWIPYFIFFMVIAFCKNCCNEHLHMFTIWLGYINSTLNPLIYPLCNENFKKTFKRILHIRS
DXR: 1-deoxy-D-xylulose 5-phosphate reductoisomerase, apicoplastic (DXR, Plasmodium falciparum, UniProt O96693)
Chain of UniProt O96693 (whole entry, looked up): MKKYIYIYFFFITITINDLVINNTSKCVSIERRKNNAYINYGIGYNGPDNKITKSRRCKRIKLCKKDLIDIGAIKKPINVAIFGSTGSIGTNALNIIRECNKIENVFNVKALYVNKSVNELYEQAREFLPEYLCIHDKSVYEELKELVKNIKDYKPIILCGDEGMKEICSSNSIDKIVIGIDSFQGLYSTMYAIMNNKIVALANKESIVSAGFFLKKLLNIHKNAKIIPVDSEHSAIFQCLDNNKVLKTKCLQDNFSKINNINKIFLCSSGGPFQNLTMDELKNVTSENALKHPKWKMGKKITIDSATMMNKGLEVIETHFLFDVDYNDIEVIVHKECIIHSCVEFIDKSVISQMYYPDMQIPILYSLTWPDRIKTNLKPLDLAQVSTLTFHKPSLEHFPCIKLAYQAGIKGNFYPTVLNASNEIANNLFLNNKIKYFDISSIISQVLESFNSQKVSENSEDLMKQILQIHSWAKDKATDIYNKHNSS
Na(+)/H(+) exchange regulatory cofactor NHE-RF2 PDZ domain 2: Na(+)/H(+) exchange regulatory cofactor NHE-RF2, PDZ domain 2 (Homo sapiens, UniProt Q15599)
Chain of UniProt Q15599 (whole entry, looked up): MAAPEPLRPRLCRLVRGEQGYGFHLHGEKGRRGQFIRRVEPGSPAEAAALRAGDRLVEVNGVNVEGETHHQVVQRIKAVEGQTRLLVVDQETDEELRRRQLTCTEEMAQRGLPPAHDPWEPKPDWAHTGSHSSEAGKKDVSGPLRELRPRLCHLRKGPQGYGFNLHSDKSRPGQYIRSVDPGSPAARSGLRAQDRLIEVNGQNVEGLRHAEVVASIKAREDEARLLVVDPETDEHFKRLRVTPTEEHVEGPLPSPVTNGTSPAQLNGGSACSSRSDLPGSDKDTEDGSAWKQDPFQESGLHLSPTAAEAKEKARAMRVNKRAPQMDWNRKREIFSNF
Drd3: D(3) dopamine receptor (Drd3, Rattus norvegicus, UniProt P19020)
Chain of UniProt P19020 (whole entry, looked up): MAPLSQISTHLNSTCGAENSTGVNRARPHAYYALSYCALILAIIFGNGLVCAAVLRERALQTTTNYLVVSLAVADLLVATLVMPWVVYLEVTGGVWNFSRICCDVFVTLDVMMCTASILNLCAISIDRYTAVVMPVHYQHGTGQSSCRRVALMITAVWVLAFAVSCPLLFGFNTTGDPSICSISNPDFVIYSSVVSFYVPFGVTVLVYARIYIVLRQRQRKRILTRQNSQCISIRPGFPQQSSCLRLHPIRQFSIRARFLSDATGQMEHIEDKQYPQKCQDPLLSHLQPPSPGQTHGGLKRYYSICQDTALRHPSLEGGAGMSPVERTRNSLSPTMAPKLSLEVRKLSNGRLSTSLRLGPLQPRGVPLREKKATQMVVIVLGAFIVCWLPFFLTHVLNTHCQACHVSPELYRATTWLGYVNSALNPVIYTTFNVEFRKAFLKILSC
Cnr1: Cannabinoid receptor 1 (Cnr1, Rattus norvegicus, UniProt P20272)
Chain of UniProt P20272 (whole entry, looked up): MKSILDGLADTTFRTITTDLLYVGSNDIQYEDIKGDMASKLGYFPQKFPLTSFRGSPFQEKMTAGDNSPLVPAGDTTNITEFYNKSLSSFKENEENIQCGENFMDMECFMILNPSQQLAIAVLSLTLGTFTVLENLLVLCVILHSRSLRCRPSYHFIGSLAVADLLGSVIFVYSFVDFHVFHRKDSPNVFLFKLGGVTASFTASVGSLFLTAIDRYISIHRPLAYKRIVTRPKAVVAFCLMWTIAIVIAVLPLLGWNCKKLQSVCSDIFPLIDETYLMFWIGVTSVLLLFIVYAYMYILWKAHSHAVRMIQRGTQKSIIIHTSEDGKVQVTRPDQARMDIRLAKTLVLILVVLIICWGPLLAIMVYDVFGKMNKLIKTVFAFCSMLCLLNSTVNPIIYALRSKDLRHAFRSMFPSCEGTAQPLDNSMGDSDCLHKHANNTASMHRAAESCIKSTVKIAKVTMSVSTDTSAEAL
MSP: Male-specific submandibular salivary gland protein (MSP, Mesocricetus auratus, UniProt Q9QXU1)
Chain of UniProt Q9QXU1 (whole entry, looked up): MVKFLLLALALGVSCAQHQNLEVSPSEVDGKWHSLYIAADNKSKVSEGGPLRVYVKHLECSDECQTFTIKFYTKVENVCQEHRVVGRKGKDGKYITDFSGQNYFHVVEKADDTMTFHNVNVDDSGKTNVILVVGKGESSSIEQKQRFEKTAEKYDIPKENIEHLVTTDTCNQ
P2RY1: P2Y purinoceptor 1 (P2RY1, Homo sapiens, UniProt P47900)
Chain of UniProt P47900 (whole entry, looked up): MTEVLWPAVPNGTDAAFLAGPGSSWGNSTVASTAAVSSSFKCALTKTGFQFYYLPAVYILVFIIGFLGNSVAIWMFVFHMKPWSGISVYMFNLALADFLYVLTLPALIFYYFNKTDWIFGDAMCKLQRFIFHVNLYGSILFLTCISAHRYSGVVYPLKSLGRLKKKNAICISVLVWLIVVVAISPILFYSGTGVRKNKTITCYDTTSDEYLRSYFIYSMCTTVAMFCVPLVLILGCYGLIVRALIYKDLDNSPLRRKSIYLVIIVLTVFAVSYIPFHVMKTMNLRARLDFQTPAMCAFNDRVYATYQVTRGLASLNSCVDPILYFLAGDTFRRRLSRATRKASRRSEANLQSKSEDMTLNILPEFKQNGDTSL
APEX1: DNA repair nuclease/redox regulator APEX1 (APEX1, Homo sapiens, UniProt P27695)
Chain of UniProt P27695 (whole entry, looked up): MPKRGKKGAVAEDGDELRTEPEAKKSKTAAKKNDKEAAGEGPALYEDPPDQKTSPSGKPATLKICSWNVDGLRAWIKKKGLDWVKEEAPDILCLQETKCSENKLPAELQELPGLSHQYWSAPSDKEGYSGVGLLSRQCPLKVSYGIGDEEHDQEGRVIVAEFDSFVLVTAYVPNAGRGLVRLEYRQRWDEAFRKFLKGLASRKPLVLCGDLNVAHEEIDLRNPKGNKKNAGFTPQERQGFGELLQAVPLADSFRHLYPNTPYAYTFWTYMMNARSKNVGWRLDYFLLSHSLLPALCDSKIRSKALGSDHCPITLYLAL
FAP: Prolyl endopeptidase FAP (FAP, Homo sapiens, UniProt Q12884)
Chain of UniProt P20813 (whole entry, looked up): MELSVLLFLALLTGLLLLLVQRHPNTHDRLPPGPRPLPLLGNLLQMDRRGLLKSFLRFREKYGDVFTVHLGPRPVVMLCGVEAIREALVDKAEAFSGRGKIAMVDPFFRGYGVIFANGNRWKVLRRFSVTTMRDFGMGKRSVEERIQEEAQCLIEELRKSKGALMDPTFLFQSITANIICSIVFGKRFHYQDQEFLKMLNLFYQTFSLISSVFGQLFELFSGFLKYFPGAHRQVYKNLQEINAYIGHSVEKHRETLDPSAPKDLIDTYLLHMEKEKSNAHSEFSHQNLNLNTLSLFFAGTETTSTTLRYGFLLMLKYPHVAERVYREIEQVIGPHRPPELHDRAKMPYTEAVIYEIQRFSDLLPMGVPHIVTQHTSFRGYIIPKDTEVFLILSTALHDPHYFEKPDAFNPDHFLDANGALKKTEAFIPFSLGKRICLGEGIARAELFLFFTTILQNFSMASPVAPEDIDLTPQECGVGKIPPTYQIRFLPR
Chain of UniProt Q12884 (whole entry, looked up): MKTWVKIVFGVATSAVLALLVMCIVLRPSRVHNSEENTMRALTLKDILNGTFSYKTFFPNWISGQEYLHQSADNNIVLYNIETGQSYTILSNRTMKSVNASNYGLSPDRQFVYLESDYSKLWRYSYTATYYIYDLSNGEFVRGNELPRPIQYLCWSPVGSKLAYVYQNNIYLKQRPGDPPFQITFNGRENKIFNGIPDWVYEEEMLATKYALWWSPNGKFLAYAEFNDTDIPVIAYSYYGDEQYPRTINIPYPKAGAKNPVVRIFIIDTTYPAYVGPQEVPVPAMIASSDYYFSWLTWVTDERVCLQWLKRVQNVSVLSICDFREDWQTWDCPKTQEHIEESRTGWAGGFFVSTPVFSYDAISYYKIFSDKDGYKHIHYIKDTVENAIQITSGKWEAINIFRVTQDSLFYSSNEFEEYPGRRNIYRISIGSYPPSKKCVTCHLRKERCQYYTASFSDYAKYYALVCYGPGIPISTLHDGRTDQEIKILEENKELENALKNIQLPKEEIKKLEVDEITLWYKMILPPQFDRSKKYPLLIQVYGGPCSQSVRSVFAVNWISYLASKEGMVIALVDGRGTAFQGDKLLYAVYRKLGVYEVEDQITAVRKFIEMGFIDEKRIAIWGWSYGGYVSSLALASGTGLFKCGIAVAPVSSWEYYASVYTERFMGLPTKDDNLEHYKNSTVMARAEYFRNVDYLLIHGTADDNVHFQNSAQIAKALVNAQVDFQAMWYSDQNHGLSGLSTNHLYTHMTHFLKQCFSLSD
Chain of UniProt P08682 (whole entry, looked up): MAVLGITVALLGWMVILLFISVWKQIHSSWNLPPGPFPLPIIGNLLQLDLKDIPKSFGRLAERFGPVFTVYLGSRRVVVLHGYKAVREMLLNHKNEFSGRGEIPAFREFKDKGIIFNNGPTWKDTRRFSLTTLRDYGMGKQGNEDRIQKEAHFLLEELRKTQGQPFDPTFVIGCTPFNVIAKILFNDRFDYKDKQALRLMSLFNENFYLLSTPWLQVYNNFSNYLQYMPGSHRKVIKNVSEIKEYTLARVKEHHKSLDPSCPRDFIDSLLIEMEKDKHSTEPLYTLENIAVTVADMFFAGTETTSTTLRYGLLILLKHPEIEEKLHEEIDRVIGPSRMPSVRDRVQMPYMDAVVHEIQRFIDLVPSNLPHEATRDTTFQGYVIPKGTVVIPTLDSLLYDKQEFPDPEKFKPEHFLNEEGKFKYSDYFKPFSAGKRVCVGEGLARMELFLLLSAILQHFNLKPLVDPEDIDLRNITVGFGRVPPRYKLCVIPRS

For `N=C(NCCCNC(N)=O)NCCCc1c[nH]cn1`, the Ki was greater than 31.6 µM (HRH1; ligand displacement, radioligand; cell membranes).
The Ki of `Cc1ccc(-c2ncc(NC(=O)Cn3cc(COc4ccc(-c5nc6ccc(C)cc6[nH]5)cc4)nn3)s2)cc1` is reported as 8.3 µM (α-glucosidase; inhibitor, Lineweaver-Burk secondary plot).
`O=C(O)C(Cc1ccccc1)[C@@H]1CCN[C@H]1C(=O)O` (relative stereo) has a Ki of greater than 100 µM (NMDA receptor, rat; binding; cortical synaptosomes; added: [3H]-CGP 39653).
`CCCCC(=O)N(O)CCCP(=O)(O)O` has a Ki of 0.86 µM (DXR; inhibitor, Lineweaver-Burk plot; added: DXP varied, NADPH 150 µM).
The Ki of `CC(C)[C@H](NC(=O)[C@@H](NC(=O)[C@@H](NC(=O)[C@H](C)NC(=O)[C@H](Cc1ccccc1)NC(=O)[C@@H](N)CC(=O)O)[C@@H](C)O)[C@@H](C)O)C(=O)O` is reported as 254 ± 6.6 µM (Na(+)/H(+) exchange regulatory cofactor NHE-RF2 PDZ domain 2; fluorescence polarization competition; added: FITC-labelled LPA2 peptide tracer).
With `Nc1nc2[nH]c3cccc(Sc4ccc5ccccc5c4)c3c2c(=O)[nH]1` the Ki was 0.0033 ± 0.0024 µM (TYMS (Homo sapiens, UniProt P04818); inhibitor; upper limit value, added: dUMP 100 µM, methylene-THF 100 µM).
With `O=[N+]([O-])c1ccc(C=Cc2ccc([N+](=O)[O-])cc2S(=O)(=O)O)c(S(=O)(=O)O)c1` the Ki was 0.115 µM (SLC4A1 (Homo sapiens, UniProt P02730); chloride self-exchange, competitive inhibitor, 36Cl- efflux; human erythrocytes; 38 °C).
The Ki of `CCCN(CCC1(O)CC(NC(=O)c2ccccc2Cl)C1)[C@H]1CCc2nc(N)sc2C1` (stereo in doubt) is reported as 0.00062 µM (Drd3; ligand displacement, radioligand; cell membranes).
For `O=C(O)c1c(Cl)c(Cl)c(Cl)c(Cl)c1-c1c2cc(I)c(=O)c(I)c-2oc2c(I)c(O)c(I)cc12`, the Ki was 0.08 µM (Dual specificity protein phosphatase 5 (Homo sapiens, UniProt Q16690); enzyme activity, noncompetitive inhibitor; 15 min, light, two-Ki model).
For `Cc1cccc(/N=N/c2c(C)c(C(=O)NN3CCCCC3)nn2-c2ccc(Cl)cc2Cl)c1`, the Ki was 0.41 ± 0.103 µM (Cnr1; radioligand binding; rat brain membranes; trans isomer, 454 nm light, added: [3H]CP55940 0.6 nM).
For `CC(C)=CCC[C@@H](C)CC=O` (racemic), the Ki was 0.11 µM (MSP; binding, fluorescence displacement; added: 1-AMA 2 µM).
`CCCN(CC[C@]1(O)C[C@@H](NC(=O)c2cccc(-c3noc(C)n3)c2)C1)[C@H]1CCc2nc(N)sc2C1` (relative stereo) gave a Ki of 15 ± 2.92 µM (dopamine D1-like receptor, rat; radioligand binding; rat striatal membranes; added: [3H]SCH23390).
`NC(=S)NCCCc1c[nH]cn1` gave a Ki of greater than 100 µM (HRH1; ligand displacement, radioligand; cell membranes).
The Ki of `C[C@@H](O)[C@H](N)C(=O)NCC(=O)N[C@@H](CCC(=O)O)C(=O)N[C@H](C(=O)N[C@H](C(=O)N[C@@H](Cc1ccccc1)C(=O)O)[C@@H](C)O)[C@@H](C)O` is reported as 14.2 ± 2.2 µM (Na(+)/H(+) exchange regulatory cofactor NHE-RF2 PDZ domain 2; fluorescence polarization competition; added: FITC-labelled LPA2 peptide tracer).
`O=C(Cc1cccs1)N[C@H](B(O)O)c1cccc(C(=O)O)c1` gave a Ki of 0.022 ± 0.002 µM (Beta-lactamase ADC-7 (Acinetobacter baumannii, UniProt Q6DRA1); inhibitor; 5 min preincubation, pH 7.4, room temperature, added: nitrocefin).
The Ki of `c1ccc(-c2cc[nH]n2)cc1` is reported as 19 µM (CYP2E1 (Oryctolagus cuniculus, UniProt P08682); inhibitor; pH 7.4, 37 °C, catalytic site, CPR-K56Q and cytochrome b5, added: 4-nitrophenol).
For `CCCN(CCC1(O)CC(NS(=O)(=O)c2cccc(OC)c2)C1)[C@H]1CCc2nc(N)sc2C1` (stereo in doubt), the Ki was 36.5 ± 2.24 µM (dopamine D1-like receptor, rat; radioligand binding; rat striatal membranes; added: [3H]SCH23390).
The Ki of `CCC(C)n1ncn(-c2ccc(N3CCN(c4ccc(OCC5COC(Cn6cncn6)(c6ccc(Cl)cc6Cl)O5)cc4)CC3)cc2)c1=O` (centres unmarked) is reported as 1.42 µM and 1.34 µM and 1.14 µM (Cytochrome P450 2B6 (CYP2B6, Homo sapiens, UniProt P20813); enzyme activity, competitive inhibitor; reconstituted system; 5 min, pH 7.4, added: 7-MFC).
`NS(=O)(=O)Cc1noc2ccccc12`: Ki “no inhibition” (Maoa (Rattus norvegicus, UniProt P21396); inhibitor; up to 100 µM, added: kynuramine).
The Ki of `CNc1nc(C#CCCCCCc2cn(CCNC(C)=O)nn2)nc2c1ncn2[C@H]1C[C@H](OP(=O)(O)O)[C@]2(COP(=O)(O)O)C[C@H]12` is reported as 6.3 µM (P2RY1; ligand displacement, radioligand; cell membranes).
For `C/C(=N\Nc1cc(C)nc2ccc(C)cc12)c1cn(C)n(-c2ccccc2)c1=O`, the Ki was 10.9 µM (APEX1; enzyme activity, inhibitor).
For `CCCN(CCC1(O)CC(NS(=O)(=O)c2ccc(F)c(F)c2)C1)[C@H]1CCc2nc(N)sc2C1` (stereo in doubt), the Ki was 0.0031 µM (Drd3; ligand displacement, radioligand; cell membranes).
With `N=c1ccc2c(-c3ccc(C(=O)NCCCCCCn4cc(CCCC(=O)Nc5nc6ccc(Cl)cc6c6nc(-c7ccco7)nn56)nn4)cc3C(=O)O)c3ccc(N)c(S(=O)(=O)O)c3oc-2c1S(=O)(=O)O` the Ki was 0.087 µM (ADORA1 (Homo sapiens, UniProt P30542); ligand displacement, radioligand; cell membranes).
For `O=C(CCc1ccccc1)N(O)C/C=C/P(=O)(O)O`, the Ki was 0.338 µM (DXR; inhibitor, Lineweaver-Burk plot; added: DXP varied, NADPH 150 µM).
`O=C(O)CC(C(=O)O)[C@@H]1CCN[C@H]1C(=O)O` (relative stereo) has a Ki of 2.7 µM (NMDA receptor, rat; binding; cortical synaptosomes; added: [3H]-CGP 39653).
With `CNc1nc(C#CCCCCc2cn(CCNC(C)=O)nn2)nc2c1ncn2[C@H]1C[C@H](OP(=O)(O)O)[C@]2(COP(=O)(O)O)C[C@H]12` the Ki was 8.3 µM (P2RY1; ligand displacement, radioligand; cell membranes).
`Cc1c(C(=O)NN2CCCCC2)nn(-c2ccc(Cl)cc2Cl)c1/N=N/c1cccc(Cl)c1Cl` has a Ki of 0.602 ± 0.085 µM (Cnr1; radioligand binding; rat brain membranes; trans isomer, 454 nm light, added: [3H]CP55940 0.6 nM).
For `CCCN(CCC1(O)CC(NC(=O)c2ccc(-c3noc(C)n3)cc2)C1)[C@H]1CCc2nc(N)sc2C1` (stereo in doubt), the Ki was 0.00096 µM (Drd3; ligand displacement, radioligand; cell membranes).
With `COc1ccccc1NC(=O)Cn1cc(CSc2nc3ccccc3c3nc(-c4ccccc4)c(-c4ccccc4)n23)nn1` the Ki was 25 µM (alpha-glucosidase (Saccharomyces cerevisiae); inhibitor, secondary plot).
The Ki of `Nc1ncnc2c1ncn2[C@@H]1O[C@H](COP(=O)(O)O)[C@@H](OP(=O)(O)O)[C@H]1O` is reported as 0.16 µM (Protein-tyrosine sulfotransferase 2 (Homo sapiens, UniProt O60704); competitive inhibitor; pH 7.5, 30 °C, product inhibition, added: PAPS).
With `COC(=O)C1(C)C=CC(=O)CC1` (centres unmarked) the Ki was greater than 200 µM (MAPK14 (Homo sapiens, UniProt Q16539); ligand displacement, FP).
`COc1ccc(/C(Cc2ccccc2)=N\Nc2ccc([N+](=O)[O-])c([N+](=O)[O-])c2)cc1` has a Ki of 6.7 µM (APEX1; enzyme activity, inhibitor).
For `CC(C(=O)NCc1ccc(C(F)(F)F)nc1OC1CCNCC1)c1ccc(NS(C)(=O)=O)c(F)c1` (centres unmarked), the Ki was 1 to 10 µM (TRPV1 (Homo sapiens, UniProt Q8NER1); calcium influx, antagonist, FLIPR; CHO cells expressing human TRPV1; added: capsaicin).
For `COCCN1C(=O)C(O)=C(C(=O)c2ccc(C)cc2)C1c1cc(OC)ccc1OC` (centres unmarked), the Ki was less than 2 µM (FPR1 (Homo sapiens, UniProt P21462); ligand displacement in cells).
`CCCCCCCCCCO` gave a Ki of 0.13 µM (MSP; binding, fluorescence displacement; added: 1-AMA 2 µM).
`N=C(NCCCCN)NCCCc1c[nH]cn1` has a Ki of greater than 10 µM (HRH1; ligand displacement, radioligand; cell membranes).
With `CCCN(CC[C@]1(O)C[C@H](NS(=O)(=O)c2ccccc2OC)C1)[C@H]1CCc2nc(N)sc2C1` (relative stereo) the Ki was 0.0023 µM (Drd3; ligand displacement, radioligand; cell membranes).
For `C=CCc1ccc(O)c(OC)c1`, the Ki was 0.35 µM (MSP; binding, fluorescence displacement; added: 1-AMA 2 µM).
`N=C(NCCCCCCCCNC(N)=O)NCCCc1c[nH]cn1` gave a Ki of greater than 3.16 µM (HRH1; ligand displacement, radioligand; cell membranes).
`CC(=O)N[C@@H](CCCNC(=N)N)C(=O)NCC(=O)NCC(=O)N1CCC[C@H]1B(O)O` gave a Ki of 0.017 µM (FAP; inhibitor, fluorogenic substrate; added: Tic-Pro-AFC).
The Ki of `CCCN(CC[C@]1(O)C[C@H](NC(=O)c2cccc(Cl)c2)C1)[C@H]1CCc2nc(N)sc2C1` (relative stereo) is reported as 0.00058 µM (Drd3; ligand displacement, radioligand; cell membranes).
For `Cc1c(C(=O)NN2CCCCC2)nn(-c2ccc(Cl)cc2Cl)c1/N=N/c1ccc(Cl)cc1Cl`, the Ki was 0.401 ± 0.033 µM (Cnr1; radioligand binding; rat brain membranes; trans isomer, 454 nm light, added: [3H]CP55940 0.6 nM).
With `N=C(N)NCCCCCCNC(=N)NCCCc1c[nH]cn1` the Ki was greater than 10 µM (HRH1; ligand displacement, radioligand; cell membranes).
`CCCCCCCCCCCCO` has a Ki of 0.17 µM (MSP; binding, fluorescence displacement; added: 1-AMA 2 µM).
The Ki of `OC[C@H]1OC(O)[C@H](O)[C@@H](O)[C@H]1O` (some centres unmarked) is reported as 10200 µM (Probable beta-galactosidase A (lacA, Emericella nidulans, UniProt Q5BFC4); p-nitrophenyl glucoside hydrolysis, competitive inhibitor; Aspergillus nidulans; 37 °C, added: 5 mM p-nitrophenyl glucoside).
`N=C(NCCCCCCN)NCCCc1c[nH]cn1` gave a Ki of greater than 10 µM (HRH1; ligand displacement, radioligand; cell membranes).
The Ki of `CC(C)C(C(=O)O)[C@@H]1CCN[C@H]1C(=O)O` (relative stereo) is reported as greater than 100 µM (NMDA receptor, rat; binding; cortical synaptosomes; added: [3H]-CGP 39653).
`CCCCCCCCOC(=O)NS(=O)(=O)Nc1ccc(-c2cc3ccccc3[nH]2)cc1OC` has a Ki of 7.41 ± 0.87 µM (Polyunsaturated fatty acid lipoxygenase ALOX15 (Oryctolagus cuniculus, UniProt P12530); linoleic acid oxygenation, inhibitor; added: linoleic acid).
`CCCN(CCC1(O)CC(NC(=O)c2ccc(F)cc2)C1)[C@H]1CCc2nc(N)sc2C1` (stereo in doubt) gave a Ki of 0.00089 µM (Drd3; ligand displacement, radioligand; cell membranes).
For `CC(C)[C@H](NC(=O)[C@H](CCC(N)=O)NC(=O)CNC(=O)[C@H](CCC(N)=O)NC(=O)[C@H](CC(N)=O)NC(=O)[C@@H]1CCCCN1C(=O)CNC(=O)COCCOCCNC(=O)[C@H](CCCNC(=N)N)NC(=O)[C@@H](N)Cc1ccccc1)C(=O)O`, the Ki was 14.5 µM (FAP; enzyme activity, inhibitor, fluorescence; pH 7.5).

Repeated from above:
`N=C(NCCCCN)NCCCc1c[nH]cn1` has a Ki of greater than 10 µM (HRH1; ligand displacement, radioligand; cell membranes).
The Ki of `c1ccc(-c2cc[nH]n2)cc1` is reported as 19 µM (CYP2E1 (Oryctolagus cuniculus, UniProt P08682); inhibitor; pH 7.4, 37 °C, catalytic site, CPR-K56Q and cytochrome b5, added: 4-nitrophenol).
With `CNc1nc(C#CCCCCc2cn(CCNC(C)=O)nn2)nc2c1ncn2[C@H]1C[C@H](OP(=O)(O)O)[C@]2(COP(=O)(O)O)C[C@H]12` the Ki was 8.3 µM (P2RY1; ligand displacement, radioligand; cell membranes).
